Published values pooled from the literature.
Numbered parts are unrelated; each lists some results of a single study.

Set 1
Target: Prothrombin, mature alpha-thrombin (F2, Homo sapiens, UniProt P00734)
Technique: aptamer microarray, sandwich
Form: DNA with 2'F-ANA
Medium: in vitro
Concentration: 200 nM
Notes: whole 15-mer aptamer, many near background
Together with: Cy3 exosite-II aptamer, 400 nM
Reading: higher = stronger binding
Strand: GGTTGGTGTGGTTGG
Modification	mean fluorescence intensity
2'F-ANA at 2 4 6 8 10 11 14 15	58 a.u.
2'F-ANA at 8 11 13 14 15	190 a.u.
2'F-ANA at 1 4 5 7 9 10 12 13 15	66.5 a.u.
2'F-ANA at 3 4 6 7 8 9 10 11 12 14 15	167 a.u.
2'F-ANA at 1 2 4 5 6 8 9 10 12 14 15	47 a.u.
2'F-ANA at 1 4 7 8 9 10 12 13 14 15	53.5 a.u.
2'F-ANA at 6 7 11 13	442 a.u.
2'F-ANA at 3 4 8 10 11 12 14 15	176 a.u.
2'F-ANA at 2 4 5 6 10 12 14 15	46.4 a.u.
2'F-ANA at 1 4 10 14	50.7 a.u.
2'F-ANA at 1 4 9 10 11 14	106 a.u.
2'F-ANA at 2 3 4 7 10 13	248 a.u.
2'F-ANA at 1 2 3 4 5 8 10 12 15	49 a.u.
2'F-ANA at 5 6 7 12	135 a.u.
2'F-ANA at 1 2 4 6 8 11 12 15	264 a.u.
2'F-ANA at 5 6 7 8 10 13	72.9 a.u.
2'F-ANA at 2 4 6 7 8 11 12 13	367 a.u.
2'F-ANA at 3 5 7 8 11 12 14	68.1 a.u.
2'F-ANA at 2 4 5 7 8 11 14 15	70.3 a.u.
2'F-ANA at 1 2 3 6 7 8 10 13	60.9 a.u.
2'F-ANA at 1 3 6 7 12 13 14 15	110 a.u.
2'F-ANA at 1 4 5 9 10 12 13 14	50.8 a.u.
2'F-ANA at 2 4 5 7 9 10 13 14	44.5 a.u.
2'F-ANA at 1 2 3 4 6 7 8 11 13 15	166 a.u.
2'F-ANA at 2 3 4 7 10 11 12 14 15	173 a.u.

Set 2
Target: RNA binding protein fox-1 homolog 2, RRM domain, GST-SBP tag (RBFOX2, Homo sapiens, UniProt O43251-10, residues 100-194)
Technique: RNA Bind-n-Seq
Form: RNA
Medium: in vitro
Concentration: 365 nM
Notes: natural RNA segment, single round, ends assumed
Reference: no-protein control
Reading: higher = stronger binding
Constant ends, left off below: GGGAGUUCUACAGUCCGACGAUC … UGGAAUUCUCGGGUGCCAA
Construct (chain): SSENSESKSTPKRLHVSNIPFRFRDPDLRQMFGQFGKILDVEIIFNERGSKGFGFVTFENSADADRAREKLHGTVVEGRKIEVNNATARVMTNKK
Strand	RBNS enrichment (R)
GGACAAGGGACGACGGCCGACGGCAGAGCAUCAGCAGCCGACACAUAGUUCGGGUCGGGGCCUUGGGUGGUCCUGCAUGGCCCGGGACUCAUCUCACGGACCCUCCGUUC	0.555
CAGUUUCAUGAAAGAAAGUGGAAGCUACAGAAUUAUUUUCUAAAAUAAAGGCUGAAUUGUCUGAAAAUAUUUAUGUGUGUGUGUCCUGGAAAAGGAGGUGGCAGGCAGGG	0.851
UUCAGUUUGUAGGAGGCAGCCUGUGUGAGUGACAGACAGGAAACAGAAGAGUAGAACAUACUGGCAGAGUUUUACAUUAGGAUAUUGCUGUCUUUUCUACGAUAGAGAAU	1.05
AGUCACCUGGUUCCCACUACUGUCGUAGCAGAUAGCGAAGGGACAAUCUGAGACUUGUAGAGAUGAUUUAAUGAGAAGCACAAUUUUUAUUGUGACCAGUCACGUUCUAU	0.327
CUUUUUAAUUUCCAGAACUGCACAAUGACCAGCAGGAGGGAAGGACAGACAUCAAGUGCCAGAUGUUGUCUGAACUAAUCGAGCACUUCUCACCAAACUUCAUGUAUAAA	0.436
UCUCUUUUAGAAAGAAAAUGAUAUAUAGGGUAAGCGGAAUUUGGGAGCCACGGCCCCAGUAAGUAAUUUUCCAAGUUGAUAGGCUCGUGAAAGCUGAACAUUACCGAUAA	0.428
AAAGGUGUAAAGUUUGCAAAUUUGAAGAAAUAUAUAUUAACACUGUGGUCAGGUACAUUCCUUAAAACUAAUUAAAUGUACAUUUCUAUAAUAAAUAUUUUUUAAACUAA	0.63
AAUGUAUCUCAAAUUUUUAAAUAGAAGAGUAAUAAACAGACUUUAAAGCAAAUAUUAAGAUUUUUACUCAUUCAAGGCAAGUAAAUGAAUGGAAUUAUCUGAGCUCUAUG	0.758
UGAUAGAAUUUUAGUUUUAGGAAAAAUUGGUUUGAUUUCUAGCUUUAUUACUAUUAGGUAUGUGAGCUUGGGCAAAUCGCUUAAUCUUUGAGUCUAGUUUUCUCUCAAAA	0.379
CUCAUUUAGCUCUGUAGCUUUCGGCUCAAUUAAUGUACUUCCUUAUAGUGAAUGAGAAGUGGUAGUCAUUUGUAAGGAUAGCACACAUUGAAUUUGGAAUUUAUUUCUUC	1.03
AUGAGAUCACAUACUUUUUAAAUCCAAAUACAAAAGCAUAGUCUCUGCAAGAUUUUGUUCUUUGAAUUUCUUGAUAUUGUAAUUGAUUAUUGAUAACUGUCAUCAUGAAA	0.448
CCCCAUUCCCCACCUGGUCCUCCCCCUUCCCAUGCUGCCAACUUCUAACCGCAAUAGUGACUCUGUGCUUGUCUGUUUAGUUCUGUGUAUAAAUGGAAUGUUGUGGAGAU	0.872

Set 3
Target: Histone acetyltransferase KAT6A, winged helix 2, GST fusion (KAT6A, Homo sapiens, UniProt Q92794, residues 85-181)
Technique: protein binding microarray
Form: double-stranded DNA, one strand shown
Medium: in vitro
Concentration: not given
Notes: 8-mer, flanks averaged, mean of 2 arrays, mostly near background
Reference: not given
Reading: higher = stronger binding
Construct (chain): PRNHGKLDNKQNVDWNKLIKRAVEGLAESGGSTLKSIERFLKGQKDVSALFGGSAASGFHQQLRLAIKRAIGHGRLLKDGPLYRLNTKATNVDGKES
Strand	E-score
CAGGCAGC	0.0891
CCTACAAG	-0.0718
CATCGGGA	0.211
ACATGACG	-0.199
GATGGTCC	-0.0806
CTCTCGCC	0.0634
GTCCCCAA	0.07
GATCCAGC	-0.0631
GCGGTCTA	0.156
ATTTAGTA	0.151
GACAGATC	0.0475
CCGTAACG	-0.188
GGCTCCGA	0.102
GATGCTGA	-0.0107
CCAGATCA	0.175
ACTACGTA	-0.0786
ACGTAATG	-0.244
TATCTAAA	-0.104
CGTTTTAG	-0.0263
CACCGATA	-0.0442
AGGTTTTA	-0.058
CGAAGCAA	0.198
CACCCATC	-0.00486
CATGCTAC	-0.00564
ACTGGTTG	0.0449

Set 4
Target: TAR DNA-binding protein 43, full length, His tag (TARDBP, Homo sapiens, UniProt Q13148, residues 1-414)
Technique: RNA Bind-n-Seq
Form: RNA
Medium: in vitro
Concentration: 20 nM
Notes: 6-mer, flanks averaged, single round
Together with: 150 mM KCl
Reference: input library
Reading: higher = stronger binding
Strand	6-mer enrichment (R)
UCUUCA	0.533
CGCAGG	1.64
UUAAAG	0.661
UACAUC	0.552
GAAUGU	1.14
UUGGCC	0.773
UAUAGA	0.653
UACCUC	0.561
CGGGAA	2.12
UCGACA	0.632
AGAACA	0.783
GACGCC	0.887
CCAAUC	0.594
GCGGCA	1.65
GGAUGG	3.77
CAGUGC	0.853
GAUACC	0.689
GUUCUG	0.767
UAUCAC	0.565
UUUCAA	0.572
UGCCGC	0.816
CAGCGA	0.894
CAACGA	0.669
GGACGC	1.64
ACCCAG	0.718

Repeated from above (set 1):
Modification	mean fluorescence intensity
2'F-ANA at 2 4 5 7 9 10 13 14	44.5 a.u.
2'F-ANA at 2 4 6 7 8 11 12 13	367 a.u.
2'F-ANA at 1 4 10 14	50.7 a.u.
2'F-ANA at 1 4 7 8 9 10 12 13 14 15	53.5 a.u.
2'F-ANA at 3 4 8 10 11 12 14 15	176 a.u.
2'F-ANA at 5 6 7 8 10 13	72.9 a.u.
